Measured values gathered from unrelated publications.
Parts stem from different laboratories: compare values within a part only. Several values in a cell are separate wells, animals, samples, runs or records.

Series 1
SMILES: COc1cc(C(=O)N2CCC(N3CCN(C)CC3)CC2)ccc1Nc1ncc2c(n1)N(C)c1ccccc1C(=O)N2C
Method: KINOMEscan
Concentration: 10 µM
Baseline: DMSO control
Reading: lower = stronger binding
| target | binding |
| --- | --- |
| PHKG1 | 54% |
| CAMKK2 | 31% |
| PRKX | 99% |
| HIPK3 | 89% |
| BRSK2 | 64% |
| WEE2 | 100% |
| IRAK3 | 100% |
| CDKL2 | 100% |
| PIK3CB | 96% |
| FYN | 100% |
| BMPR1B | 76% |

Series 2
Target: D(3) dopamine receptor (DRD3, Homo sapiens, UniProt P35462)
UniProt P35462, sequence (whole entry, looked up): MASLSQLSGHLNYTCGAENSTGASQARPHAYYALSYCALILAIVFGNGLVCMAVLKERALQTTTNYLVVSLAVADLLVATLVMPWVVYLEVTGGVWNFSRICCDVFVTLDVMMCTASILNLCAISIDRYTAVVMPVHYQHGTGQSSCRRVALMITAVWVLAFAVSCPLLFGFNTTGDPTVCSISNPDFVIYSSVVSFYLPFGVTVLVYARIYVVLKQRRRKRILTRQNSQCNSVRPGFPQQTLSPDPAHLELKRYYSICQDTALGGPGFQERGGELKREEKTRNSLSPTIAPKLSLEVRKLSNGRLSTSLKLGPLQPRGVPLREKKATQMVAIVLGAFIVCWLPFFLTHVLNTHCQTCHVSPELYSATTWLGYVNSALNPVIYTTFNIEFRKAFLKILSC
Observed: binding
Method: radioligand binding
Concentration: 10 µM
| SMILES | inhibition [%] |
| --- | --- |
| CC(=O)c1c(NS(C)(=O)=O)c2cc(-c3ccc(Cl)cc3)c(-c3ccc(Cl)cc3Cl)nc2n(C)c1=O | 5.91 |
| O=C1CCc2cc(Nc3cc(OC4CCOCC4)c([N+](=O)[O-])cc3Cl)ccc2N1 | 35.4 |
| CCOCCn1cc(C(=O)Nc2ccc(-n3nc(-c4cccnc4)cc3C(F)(F)F)cn2)ccc1=O | -13.1 |
| CN1CCN(C(=O)C(C)(C)c2ccc(C(=O)Nc3cn4cc(-c5ccncc5)ccc4n3)cc2)CC1 | 12.8 |
| Cc1nc(C2CCN(C(=O)c3ccc(OC(F)(F)F)cc3N)CC2)c2ncc(N3CCN(C)CC3)cc2n1 | -8.88 |
| O=C(Nc1cccnn1)N1CC(CC=Cc2cncc(Oc3ccc(C(F)(F)F)cn3)n2)C1 | -9.59 |
| Cc1c(N2CCCC2)nc2ccc(Br)cc2c1C(=O)NC[C@H](CCC(=O)O)c1ccccc1Cl | -15.8 |
| CNC(=O)c1ccc(Nc2ncc(C(F)(F)F)c(NCc3nccnc3N(C)S(C)(=O)=O)n2)cc1 | 11.3 |
| CC(=O)Nc1nc(CN2CCC[C@H](Cc3cc(C)nc(C)c3)C2)cs1 | -11.4 |
| CN([C@@H]1CCc2c(CC(=O)O)c3cc(S(C)(=O)=O)ccc3n2C1)S(=O)(=O)c1ccc(F)cc1 | -5.72 |
| Cc1c(NC(=O)c2cc(C(N)=O)nc3cc(F)ccc23)c(C(F)(F)F)nn1Cc1ccc(C(C)(C)C)cc1 | 11.9 |
| O=C1c2ccc(Nc3ccc(F)cc3F)cc2CCc2ccc(OC[C@H](O)CO)cc21 | -7.71 |
| CC(C)(O)c1cncc(-c2nc3ccc(F)cc3n2C2CC2)c1 | -6.18 |
| CN1C(=O)[C@@H](N2CCc3cn(Cc4ccccc4)nc3C2=O)COc2ccccc21 | -4.81 |
| O=C(Nc1cccnn1)N1CCC(=Cc2cccc(Oc3ccc(C(F)(F)F)cn3)c2)CC1 | 4.08 |
| CN(C)C(=O)Cn1cc(-c2nc([C@@](C)(c3ccc(-c4cnc(N)nc4)cc3)C3CC3)no2)cn1 | -5.98 |
| O=C([C@H]1C[C@H](O)CN1c1ccc(Cl)cc1)N1CC2COCC(C1)N2Cc1ccc(Cl)cc1 | 2.75 |
| Cc1nccc(COC(=O)N2C[C@@H]3[C@@H](CNC(=O)c4ccc5[nH]nnc5c4)[C@@H]3C2)n1 | 1.07 |
| Cc1nc(Cc2cccc(C(F)(F)F)c2)sc1-c1ccc(C(N)=O)nc1 | 6.21 |
| Cc1nc(N2CC[C@@H](O)C2)ncc1-c1cc(C(F)(F)F)cc2[nH]ncc12 | -16.3 |
| CC1=C(C#N)C(c2ccc3c(c2)c(NC(=O)c2ccccc2C)nn3C)C(C#N)=C(C)N1 | 2.48 |
| Cc1cc(-n2nc(Cc3cc(F)cc(C(F)(F)F)c3)nc2C)ccc1C(N)=O | 3.4 |

Series 3
Target: Protein-tyrosine kinase 6 (PTK6, Homo sapiens, UniProt Q13882)
UniProt Q13882, sequence (whole entry, looked up): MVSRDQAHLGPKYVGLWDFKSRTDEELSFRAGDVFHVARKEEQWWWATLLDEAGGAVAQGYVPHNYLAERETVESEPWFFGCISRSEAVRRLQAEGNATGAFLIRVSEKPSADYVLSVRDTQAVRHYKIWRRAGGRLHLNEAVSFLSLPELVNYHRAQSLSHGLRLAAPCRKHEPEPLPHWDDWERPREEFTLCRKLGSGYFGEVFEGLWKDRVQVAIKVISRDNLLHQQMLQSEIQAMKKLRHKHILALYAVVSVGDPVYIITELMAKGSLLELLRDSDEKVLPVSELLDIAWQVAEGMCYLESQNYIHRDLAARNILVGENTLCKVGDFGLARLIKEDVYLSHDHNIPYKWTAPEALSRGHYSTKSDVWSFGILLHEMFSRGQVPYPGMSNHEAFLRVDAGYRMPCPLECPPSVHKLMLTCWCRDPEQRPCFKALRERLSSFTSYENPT
Observed: enzyme activity
Mode: inhibitor
Concentration: 0.5 µM
Baseline: control
| Structure (SMILES) | remaining activity [%] |
| --- | --- |
| CCN1/C(=C/C(C)=O)Sc2ccc(OC)cc21 | 85.3 |
| CC(C)[C@H](CO)Nc1nc(Nc2cccc(Cl)c2)c2ncn(C(C)C)c2n1 | 89.2 |
| C[S+]([O-])c1ccc(-c2nc(-c3ccncc3)c(-c3ccc(F)cc3)[nH]2)cc1 (stereo not shown) | 54.2 |
| COc1ccc(-c2cnc3c(-c4ccsc4)cnn3c2)cc1 | 77.5 |
| O=C(Nc1ccc(Cl)cc1)c1ccccc1NCc1ccncc1 | 63.6 |
| CC(=O)O/N=C1/C(c2c(O)[nH]c3cc(Br)ccc23)=Nc2ccccc21 | 91.2 |
| O=c1cc(N2CCOCC2)oc2c1ccc1ccccc12 | 101 |
| COc1ccc(Cl)cc1NC(=O)Nc1cc(C)nc2ccccc12 | 101 |
| Cn1cnc2cc3c(Nc4cccc(Br)c4)ncnc3cc21 | 54 |
| CC(C)c1nn(-c2c(Cl)cccc2Cl)c2nc(Cc3ccc(OCCO)cc3)[nH]c(=O)c12 | 87.1 |

Series 4
Cell line: A-375
Concentration: 100 µM
Time: 36 h
| Structure (SMILES) | viability |
| --- | --- |
| COCCCC/C(=N\OCCN)c1ccc(C(F)(F)F)cc1 | -1.08% |
| O=C1NCC2(CCN(CCc3ccccc3)CC2)O1 | 127% |
| CN1CCc2c(c3ccccc3n2Cc2ccccc2)C1 | 117% |
| Cc1cn([C@@H]2C[C@@H](O)[C@H](CO)O2)c(=O)[nH]c1=O | 110% |
| Nc1ccc(S(=O)(=O)Nc2nccs2)cc1 | 102% |
| CCCCCOC(=O)Nc1nc(=O)n([C@@H]2O[C@H](C)[C@@H](O)[C@H]2O)cc1F | 115% |
| O=C(Nc1cccc2c(=O)cc(-c3nnn[nH]3)oc12)c1ccc(OCCCCc2ccccc2)cc1 | 26.8% |
| CCC[C@@H]1C[C@@H](C(=O)N[C@@H]([C@H]2O[C@H](SC)[C@H](O)[C@@H](O)[C@H]2O)[C@@H](C)O)N(C)C1 | 100% and 97.6% |
| CCCCCCCCc1ccc(CCC(N)(CO)CO)cc1 | 1.63% |
| CC1=C(C/C=C(\C)CCC[C@H](C)CCC[C@H](C)CCCC(C)C)C(=O)c2ccccc2C1=O | 106% |
| Cc1cnc(C(=O)N[C@H]2CCCCC/C=C\[C@@H]3C[C@@]3(C(=O)NS(=O)(=O)C3CC3)NC(=O)[C@@H]3C[C@@H](Oc4nc5ccccc5c5ccccc45)CN3C2=O)cn1 | 7.04% |
| CC(C)C[C@H](NC(=O)CNC(=O)c1cc(Cl)ccc1Cl)B(O)O | 8.53% |
| COc1ccccc1OCC(O)CN1CCN(CC(=O)Nc2c(C)cccc2C)CC1 (stereo not shown) | 104% |
| O=C1CC[C@@H](C(=O)N2CSC[C@H]2C(=O)O)N1 | 89.1% |
| Cn1c(=O)c2c(ncn2CC(O)CO)n(C)c1=O (stereo not shown) | 98% |

For quick reference, copied from above (series 4):
| Structure (SMILES) | viability |
| --- | --- |
| CCCCCCCCc1ccc(CCC(N)(CO)CO)cc1 | 1.63% |
| CC1=C(C/C=C(\C)CCC[C@H](C)CCC[C@H](C)CCCC(C)C)C(=O)c2ccccc2C1=O | 106% |
| Cc1cnc(C(=O)N[C@H]2CCCCC/C=C\[C@@H]3C[C@@]3(C(=O)NS(=O)(=O)C3CC3)NC(=O)[C@@H]3C[C@@H](Oc4nc5ccccc5c5ccccc45)CN3C2=O)cn1 | 7.04% |
| O=C1NCC2(CCN(CCc3ccccc3)CC2)O1 | 127% |
| CC(C)C[C@H](NC(=O)CNC(=O)c1cc(Cl)ccc1Cl)B(O)O | 8.53% |
| CCC[C@@H]1C[C@@H](C(=O)N[C@@H]([C@H]2O[C@H](SC)[C@H](O)[C@@H](O)[C@H]2O)[C@@H](C)O)N(C)C1 | 100% and 97.6% |
| COCCCC/C(=N\OCCN)c1ccc(C(F)(F)F)cc1 | -1.08% |
| CN1CCc2c(c3ccccc3n2Cc2ccccc2)C1 | 117% |
